Experimental data collected from several papers.
Protocols differ between the studies behind these lines. ± gives the spread as reported. Positions of bridges follow the written chain, without caps; N, C: chain ends. No end group written: not given here.
NR1H3: Oxysterols receptor LXR-alpha (NR1H3, Homo sapiens, UniProt Q13133)
UniProt Q13133, sequence (whole entry, looked up): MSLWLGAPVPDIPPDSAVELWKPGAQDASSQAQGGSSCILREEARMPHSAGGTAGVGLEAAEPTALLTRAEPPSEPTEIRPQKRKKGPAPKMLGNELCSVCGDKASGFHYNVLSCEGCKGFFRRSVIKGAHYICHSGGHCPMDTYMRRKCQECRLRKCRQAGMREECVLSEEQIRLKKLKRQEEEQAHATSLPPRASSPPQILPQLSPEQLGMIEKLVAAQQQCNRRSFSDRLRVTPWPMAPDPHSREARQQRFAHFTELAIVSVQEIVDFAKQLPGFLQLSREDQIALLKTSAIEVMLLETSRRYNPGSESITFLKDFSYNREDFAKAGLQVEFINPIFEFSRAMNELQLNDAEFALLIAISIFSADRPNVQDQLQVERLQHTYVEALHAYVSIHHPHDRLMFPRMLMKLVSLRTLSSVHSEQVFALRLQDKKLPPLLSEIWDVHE
UniProt Q99ZW2, sequence (whole entry, looked up): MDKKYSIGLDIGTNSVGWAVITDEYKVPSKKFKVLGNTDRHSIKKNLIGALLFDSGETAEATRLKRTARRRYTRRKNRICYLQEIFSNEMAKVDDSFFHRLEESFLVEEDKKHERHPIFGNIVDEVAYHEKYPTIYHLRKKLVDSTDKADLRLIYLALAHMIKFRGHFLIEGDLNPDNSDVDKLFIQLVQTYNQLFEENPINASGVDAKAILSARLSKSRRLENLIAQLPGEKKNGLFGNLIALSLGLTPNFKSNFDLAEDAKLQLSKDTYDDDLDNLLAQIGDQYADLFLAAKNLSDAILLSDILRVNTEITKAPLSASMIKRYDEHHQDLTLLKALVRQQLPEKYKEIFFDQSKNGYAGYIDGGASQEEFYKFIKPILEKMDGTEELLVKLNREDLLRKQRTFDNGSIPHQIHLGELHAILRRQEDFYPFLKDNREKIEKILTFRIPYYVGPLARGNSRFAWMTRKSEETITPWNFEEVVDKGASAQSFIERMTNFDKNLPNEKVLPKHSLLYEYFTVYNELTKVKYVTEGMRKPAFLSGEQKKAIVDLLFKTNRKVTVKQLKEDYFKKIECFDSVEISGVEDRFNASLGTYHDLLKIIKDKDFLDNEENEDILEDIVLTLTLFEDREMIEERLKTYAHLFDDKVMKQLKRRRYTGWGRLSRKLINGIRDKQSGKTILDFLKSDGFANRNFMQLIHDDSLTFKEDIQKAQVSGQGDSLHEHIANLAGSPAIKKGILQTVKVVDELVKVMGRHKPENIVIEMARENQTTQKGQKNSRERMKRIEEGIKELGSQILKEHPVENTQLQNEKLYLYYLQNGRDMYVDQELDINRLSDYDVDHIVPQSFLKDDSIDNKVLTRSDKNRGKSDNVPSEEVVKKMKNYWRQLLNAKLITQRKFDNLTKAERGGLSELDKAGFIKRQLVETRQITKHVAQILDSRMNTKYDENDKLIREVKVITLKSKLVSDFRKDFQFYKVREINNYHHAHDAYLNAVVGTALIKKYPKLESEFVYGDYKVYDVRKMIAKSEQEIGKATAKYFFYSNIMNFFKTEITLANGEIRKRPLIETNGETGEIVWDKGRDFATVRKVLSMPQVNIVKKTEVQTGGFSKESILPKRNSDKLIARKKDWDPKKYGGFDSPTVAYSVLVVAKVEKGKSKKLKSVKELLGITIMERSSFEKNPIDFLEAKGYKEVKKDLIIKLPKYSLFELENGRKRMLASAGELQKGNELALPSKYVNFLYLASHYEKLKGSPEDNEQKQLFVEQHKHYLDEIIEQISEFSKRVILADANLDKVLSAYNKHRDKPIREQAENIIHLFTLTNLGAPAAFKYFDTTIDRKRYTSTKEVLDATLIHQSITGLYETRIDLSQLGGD
UniProt P22629, sequence (whole entry, unmodified, looked up): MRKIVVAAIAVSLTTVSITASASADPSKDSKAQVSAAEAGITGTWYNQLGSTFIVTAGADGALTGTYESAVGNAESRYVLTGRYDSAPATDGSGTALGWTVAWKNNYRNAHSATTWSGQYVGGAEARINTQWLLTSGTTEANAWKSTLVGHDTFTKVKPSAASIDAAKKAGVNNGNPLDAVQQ
UniProt O96013, sequence (whole entry, looked up): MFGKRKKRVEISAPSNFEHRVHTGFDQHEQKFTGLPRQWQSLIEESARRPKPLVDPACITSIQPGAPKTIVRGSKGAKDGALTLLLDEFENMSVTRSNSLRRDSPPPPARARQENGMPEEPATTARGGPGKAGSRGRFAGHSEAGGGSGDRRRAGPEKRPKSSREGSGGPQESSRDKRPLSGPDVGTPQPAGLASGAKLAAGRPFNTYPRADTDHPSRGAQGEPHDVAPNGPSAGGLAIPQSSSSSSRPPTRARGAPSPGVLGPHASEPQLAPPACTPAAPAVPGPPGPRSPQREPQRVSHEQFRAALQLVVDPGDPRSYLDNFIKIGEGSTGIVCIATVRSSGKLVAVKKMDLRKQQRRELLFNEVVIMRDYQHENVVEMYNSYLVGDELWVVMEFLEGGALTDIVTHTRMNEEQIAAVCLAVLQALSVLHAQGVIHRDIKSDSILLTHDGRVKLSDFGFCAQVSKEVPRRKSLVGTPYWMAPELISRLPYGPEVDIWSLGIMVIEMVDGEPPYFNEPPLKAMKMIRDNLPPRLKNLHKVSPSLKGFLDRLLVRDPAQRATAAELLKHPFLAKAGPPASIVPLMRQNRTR
UniProt P55212, sequence (whole entry, looked up): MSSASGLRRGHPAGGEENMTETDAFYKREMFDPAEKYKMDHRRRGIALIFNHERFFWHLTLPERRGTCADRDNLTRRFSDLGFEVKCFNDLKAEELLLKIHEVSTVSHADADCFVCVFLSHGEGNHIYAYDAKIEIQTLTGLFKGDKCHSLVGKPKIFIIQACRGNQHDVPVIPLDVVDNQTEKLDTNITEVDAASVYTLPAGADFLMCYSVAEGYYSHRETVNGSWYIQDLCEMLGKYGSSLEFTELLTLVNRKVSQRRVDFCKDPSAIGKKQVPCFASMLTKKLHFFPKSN

NQVANAQ
Kd (Escherichia coli 23S rRNA H69, unmodified; binding, ESI-MS titration; peptide, 50% isopropanol, 150 mM ammonium acetate; together with: RNA 2.7 µM): > 120000 nM

abamectin
IC50 (NR1H3; coactivator recruitment, antagonist, TR-FRET): 2030 ± 1620 nM

hexaarginine
Kd (PorA peptide pore; peptide binding, planar bilayer single-channel recording; pH 7.4, +20 mV, trans side, 150 mM KCl): 19500 ± 2000 nM

Ac-DEVD-CHO
IC50 (Caspase-6 (CASP6, Homo sapiens, UniProt P55212); enzyme activity, inhibitor): 45.3 nM

bleomycin sulfate
IC50 (CRISPR-associated endonuclease Cas9/Csn1 (cas9, Streptococcus pyogenes serotype M1, UniProt Q99ZW2); enzyme activity, inhibitor; Streptococcus pyogenes): 2000 to 5000 nM

nonaarginine
Kd (PorA peptide pore; peptide binding, planar bilayer single-channel recording; pH 7.4, +25 mV, trans side, 150 mM KCl): 3090 ± 300 nM

CRQLRKGKFFSEGGSGGTSFEQFWAWLWP
DC50 (Serine/threonine-protein kinase PAK 4 (PAK4, Homo sapiens, UniProt O96013); degrader, Western blot, refers to: PAK4 protein; peptide, 786-O cells; concentration not given): ~200 nM

ACHPQFYVICSG (disulfide 2-10 (inferred)) (disulfide)
Kd (Streptavidin (Streptomyces avidinii, UniProt P22629, E68V/S69T/V71R); binding, yeast surface display; 1 h, 4 °C, together with: Strep-Tactin): 6.1 ± 0.3 nM

dynorphin B
Ki (opioid receptor mouse; binding; CD-1 mouse brain): 6.7 ± 3.5 nM

Ivermectin
IC50 (NR1H3; coactivator recruitment, antagonist, TR-FRET): 3570 ± 2670 nM

insulin human
fold change (refers to: PPAT mRNA; uninfected mouse, brain; i.p., dose not given; baseline: PBS): 1.05

aspterric acid
hypocotyl length (Arabidopsis thaliana Col-0 seeds; 12.5 µg/mL, seed germination): 0.117 cm

A few entries again:
insulin human
fold change (refers to: PPAT mRNA; uninfected mouse, brain; i.p., dose not given; baseline: PBS): 1.05
